Measurements collected from several papers.
Each numbered part is a random draw from the data of one study; scales do not carry over between parts. Positions count from the first letter of the parent shown.

Set 1 — observed: binding; method: phage display NGS; form: peptide; concentration: concentration not given; reference: input library
Target: UDP-N-acetylglucosamine--peptide N-acetylglucosaminyltransferase 110 kDa subunit (OGT, Homo sapiens, UniProt O15294)
UniProt O15294, sequence (whole entry, looked up): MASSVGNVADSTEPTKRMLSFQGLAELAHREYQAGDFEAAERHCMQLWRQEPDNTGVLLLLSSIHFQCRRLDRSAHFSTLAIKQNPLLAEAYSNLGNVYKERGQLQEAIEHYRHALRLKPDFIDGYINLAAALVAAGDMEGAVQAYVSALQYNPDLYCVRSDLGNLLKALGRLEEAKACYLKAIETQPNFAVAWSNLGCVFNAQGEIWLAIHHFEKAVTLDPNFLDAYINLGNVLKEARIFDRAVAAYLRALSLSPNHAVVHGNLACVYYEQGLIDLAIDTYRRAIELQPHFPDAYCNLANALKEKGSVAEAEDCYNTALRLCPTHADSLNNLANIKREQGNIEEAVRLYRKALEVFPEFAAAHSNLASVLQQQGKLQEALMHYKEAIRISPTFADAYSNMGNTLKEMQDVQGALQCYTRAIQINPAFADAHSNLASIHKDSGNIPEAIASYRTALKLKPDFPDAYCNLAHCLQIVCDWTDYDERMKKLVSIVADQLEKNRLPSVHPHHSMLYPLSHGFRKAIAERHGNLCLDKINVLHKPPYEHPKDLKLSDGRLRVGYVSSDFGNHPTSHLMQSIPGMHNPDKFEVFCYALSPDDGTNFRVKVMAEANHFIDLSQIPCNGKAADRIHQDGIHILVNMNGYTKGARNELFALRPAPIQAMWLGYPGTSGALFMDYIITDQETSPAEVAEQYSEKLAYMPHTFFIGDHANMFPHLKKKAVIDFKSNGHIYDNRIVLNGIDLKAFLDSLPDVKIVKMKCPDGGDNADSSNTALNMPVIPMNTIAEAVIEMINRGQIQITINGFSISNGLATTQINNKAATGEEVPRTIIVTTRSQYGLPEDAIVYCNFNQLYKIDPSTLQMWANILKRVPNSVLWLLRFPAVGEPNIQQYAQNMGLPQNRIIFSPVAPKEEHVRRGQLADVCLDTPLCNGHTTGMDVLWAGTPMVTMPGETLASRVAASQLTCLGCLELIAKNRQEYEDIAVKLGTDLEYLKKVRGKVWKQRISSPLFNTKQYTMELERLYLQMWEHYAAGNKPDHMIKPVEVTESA
Sequence	enrichment fold change
QQPRYYPQYQMRYKV	9.31
HPMIDRHKHTPWNKH	4.24
WPGHSHNNYAHHTGH	6.04
AHHQGAVDHMRTHHS	3.82
HWHSAAIDPHRHRGE	5.06
FNHRNHHEPHRHHNA	7.78
RFMPVYQMNVPEIDV	2.2
HLSQDHHPKRQKHTH	4.94

Set 2 — target: tungstate, free oxyanion; method: microfluidic competitive inhibition; medium: in vitro, cell-free expressed; concentration: not given; reading: lower = stronger binding
Setting: derived from inhibition constants, unchanged parent 2230 nM
Starting sequence: PafA, mature enzyme, eGFP fusion (Elizabethkingia meningoseptica, UniProt Q9KJX5); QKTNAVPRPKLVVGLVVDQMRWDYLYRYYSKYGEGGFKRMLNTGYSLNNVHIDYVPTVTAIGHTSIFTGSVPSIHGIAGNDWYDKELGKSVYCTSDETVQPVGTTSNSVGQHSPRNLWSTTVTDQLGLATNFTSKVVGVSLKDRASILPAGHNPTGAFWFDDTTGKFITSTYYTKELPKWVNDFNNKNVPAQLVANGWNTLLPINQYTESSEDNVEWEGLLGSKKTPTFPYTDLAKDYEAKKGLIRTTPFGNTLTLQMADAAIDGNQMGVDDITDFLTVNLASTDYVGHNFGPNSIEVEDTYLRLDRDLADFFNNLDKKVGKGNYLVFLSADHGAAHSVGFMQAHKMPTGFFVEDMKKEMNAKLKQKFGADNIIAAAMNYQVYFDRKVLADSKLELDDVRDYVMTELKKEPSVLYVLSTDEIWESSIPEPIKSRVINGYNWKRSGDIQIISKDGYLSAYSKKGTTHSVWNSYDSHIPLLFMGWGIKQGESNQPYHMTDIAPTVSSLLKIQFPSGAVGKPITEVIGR
Change	oxyanion analog dissociation constant [nM]
D385V	1690
V468A	1570
L41V	2360
G36A	2410
T68V	1280
P512V	2780
S211V	2230
D275V	1310

Set 3 — target: CCNA2, cyclin fold, Cln2 fusion (human); method: yeast growth competition, sequencing; medium: yeast; setting: strong parent motif; reference: not given; reading: higher = stronger binding
Starting sequence: viral docking peptide; YKVKRRLVFGADD; partner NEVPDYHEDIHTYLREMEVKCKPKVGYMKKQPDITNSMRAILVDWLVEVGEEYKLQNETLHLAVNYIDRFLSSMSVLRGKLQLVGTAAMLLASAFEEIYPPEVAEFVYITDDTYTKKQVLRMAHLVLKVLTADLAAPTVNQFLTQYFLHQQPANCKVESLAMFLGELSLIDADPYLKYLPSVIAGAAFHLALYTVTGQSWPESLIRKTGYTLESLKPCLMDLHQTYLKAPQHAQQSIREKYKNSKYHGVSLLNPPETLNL
Change	normalised enrichment score
V8P	5.07
K2Y	5.83
K2T	6.15
R5T	4.22
A11C	6.17
F9Q	1.11
F9V	1.04
V8S	6.28

Mixed results
Structure (SMILES)	cell line	concentration	time	measurement	result
O=C(O)[C@@H]1[C@H](C(=O)O)[C@H]2CC[C@@H]1O2	HaCaT	100 µM	36 h	viability	90.9%
